Measurements gathered from unrelated publications.
Parts stem from different laboratories: compare values within a part only.
Sequence of UniProt Q16566 (whole entry, looked up): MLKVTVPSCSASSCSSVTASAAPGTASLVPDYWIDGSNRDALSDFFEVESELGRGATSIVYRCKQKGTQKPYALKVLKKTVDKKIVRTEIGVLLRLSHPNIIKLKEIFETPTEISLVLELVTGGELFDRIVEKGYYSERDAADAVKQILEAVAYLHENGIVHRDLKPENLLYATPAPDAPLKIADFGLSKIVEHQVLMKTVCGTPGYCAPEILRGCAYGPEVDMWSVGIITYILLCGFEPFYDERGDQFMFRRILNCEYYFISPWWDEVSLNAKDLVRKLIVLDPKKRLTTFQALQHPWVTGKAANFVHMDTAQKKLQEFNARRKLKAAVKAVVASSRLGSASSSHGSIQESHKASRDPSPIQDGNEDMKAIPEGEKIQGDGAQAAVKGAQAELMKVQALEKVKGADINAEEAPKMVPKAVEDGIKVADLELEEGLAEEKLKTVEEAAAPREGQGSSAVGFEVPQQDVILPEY
Sequence of UniProt P06493 (whole entry, looked up): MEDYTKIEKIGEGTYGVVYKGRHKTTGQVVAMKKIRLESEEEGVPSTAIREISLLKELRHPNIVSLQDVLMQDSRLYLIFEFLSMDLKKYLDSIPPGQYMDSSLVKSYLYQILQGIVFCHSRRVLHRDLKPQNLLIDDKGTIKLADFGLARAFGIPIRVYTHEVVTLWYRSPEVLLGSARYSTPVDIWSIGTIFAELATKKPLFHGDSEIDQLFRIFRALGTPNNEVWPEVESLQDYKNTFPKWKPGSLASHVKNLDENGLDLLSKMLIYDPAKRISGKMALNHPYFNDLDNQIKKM
Sequence of UniProt Q16832 (whole entry, looked up): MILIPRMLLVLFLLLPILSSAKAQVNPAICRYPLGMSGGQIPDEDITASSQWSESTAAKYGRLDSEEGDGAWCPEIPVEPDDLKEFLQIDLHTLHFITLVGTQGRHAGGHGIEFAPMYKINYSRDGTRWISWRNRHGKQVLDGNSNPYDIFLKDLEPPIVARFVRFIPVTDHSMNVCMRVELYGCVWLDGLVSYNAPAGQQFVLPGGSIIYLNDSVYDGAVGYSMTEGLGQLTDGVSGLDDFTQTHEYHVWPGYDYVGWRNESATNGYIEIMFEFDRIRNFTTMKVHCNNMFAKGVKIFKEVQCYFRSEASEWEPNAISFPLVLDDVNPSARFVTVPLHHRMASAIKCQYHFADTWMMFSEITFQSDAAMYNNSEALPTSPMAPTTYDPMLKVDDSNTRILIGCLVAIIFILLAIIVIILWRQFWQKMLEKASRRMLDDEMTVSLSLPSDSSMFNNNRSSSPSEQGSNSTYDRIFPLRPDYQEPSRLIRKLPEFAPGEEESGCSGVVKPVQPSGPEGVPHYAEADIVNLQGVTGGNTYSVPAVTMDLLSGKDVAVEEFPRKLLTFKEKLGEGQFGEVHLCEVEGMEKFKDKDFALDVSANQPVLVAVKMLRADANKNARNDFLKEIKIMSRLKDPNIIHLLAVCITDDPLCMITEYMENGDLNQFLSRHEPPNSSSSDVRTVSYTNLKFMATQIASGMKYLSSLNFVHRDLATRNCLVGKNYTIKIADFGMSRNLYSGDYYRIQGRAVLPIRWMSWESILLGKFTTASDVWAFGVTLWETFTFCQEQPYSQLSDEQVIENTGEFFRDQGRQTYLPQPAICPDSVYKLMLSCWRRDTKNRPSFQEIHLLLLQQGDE
Sequence of UniProt Q13237 (whole entry, looked up): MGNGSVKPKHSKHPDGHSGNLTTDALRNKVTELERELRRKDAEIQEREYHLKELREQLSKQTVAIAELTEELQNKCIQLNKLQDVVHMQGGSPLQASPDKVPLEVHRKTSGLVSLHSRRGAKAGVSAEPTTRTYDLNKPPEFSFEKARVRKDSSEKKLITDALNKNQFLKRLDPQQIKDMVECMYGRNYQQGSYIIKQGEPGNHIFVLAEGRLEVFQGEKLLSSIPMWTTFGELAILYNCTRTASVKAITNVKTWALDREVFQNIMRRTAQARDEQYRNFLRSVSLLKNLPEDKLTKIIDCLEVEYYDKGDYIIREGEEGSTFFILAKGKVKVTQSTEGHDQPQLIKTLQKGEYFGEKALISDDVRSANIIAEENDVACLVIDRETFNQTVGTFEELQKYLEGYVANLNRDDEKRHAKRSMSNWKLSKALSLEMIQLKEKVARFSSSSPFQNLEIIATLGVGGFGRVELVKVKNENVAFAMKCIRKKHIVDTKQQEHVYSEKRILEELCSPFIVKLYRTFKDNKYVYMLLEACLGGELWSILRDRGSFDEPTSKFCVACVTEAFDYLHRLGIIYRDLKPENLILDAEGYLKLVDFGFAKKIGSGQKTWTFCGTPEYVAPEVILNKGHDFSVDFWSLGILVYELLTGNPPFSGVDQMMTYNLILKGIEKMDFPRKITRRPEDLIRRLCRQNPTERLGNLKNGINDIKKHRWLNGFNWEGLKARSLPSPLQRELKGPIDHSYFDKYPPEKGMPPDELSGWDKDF
Sequence of UniProt P42681 (whole entry, looked up): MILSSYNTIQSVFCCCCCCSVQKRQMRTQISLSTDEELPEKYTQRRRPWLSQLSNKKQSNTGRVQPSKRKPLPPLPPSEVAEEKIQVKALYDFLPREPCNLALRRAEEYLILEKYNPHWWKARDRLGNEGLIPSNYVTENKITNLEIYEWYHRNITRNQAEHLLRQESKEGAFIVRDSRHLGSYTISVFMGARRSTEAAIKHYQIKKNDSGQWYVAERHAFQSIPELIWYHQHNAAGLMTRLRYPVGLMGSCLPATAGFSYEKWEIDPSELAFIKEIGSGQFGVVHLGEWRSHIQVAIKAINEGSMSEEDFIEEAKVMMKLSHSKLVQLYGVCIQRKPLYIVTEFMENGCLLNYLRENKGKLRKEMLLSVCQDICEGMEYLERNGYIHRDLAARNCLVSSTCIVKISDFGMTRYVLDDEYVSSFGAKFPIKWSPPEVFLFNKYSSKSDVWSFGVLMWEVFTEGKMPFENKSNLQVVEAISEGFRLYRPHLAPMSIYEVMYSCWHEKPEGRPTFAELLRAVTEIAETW
Sequence of UniProt P42338 (whole entry, looked up): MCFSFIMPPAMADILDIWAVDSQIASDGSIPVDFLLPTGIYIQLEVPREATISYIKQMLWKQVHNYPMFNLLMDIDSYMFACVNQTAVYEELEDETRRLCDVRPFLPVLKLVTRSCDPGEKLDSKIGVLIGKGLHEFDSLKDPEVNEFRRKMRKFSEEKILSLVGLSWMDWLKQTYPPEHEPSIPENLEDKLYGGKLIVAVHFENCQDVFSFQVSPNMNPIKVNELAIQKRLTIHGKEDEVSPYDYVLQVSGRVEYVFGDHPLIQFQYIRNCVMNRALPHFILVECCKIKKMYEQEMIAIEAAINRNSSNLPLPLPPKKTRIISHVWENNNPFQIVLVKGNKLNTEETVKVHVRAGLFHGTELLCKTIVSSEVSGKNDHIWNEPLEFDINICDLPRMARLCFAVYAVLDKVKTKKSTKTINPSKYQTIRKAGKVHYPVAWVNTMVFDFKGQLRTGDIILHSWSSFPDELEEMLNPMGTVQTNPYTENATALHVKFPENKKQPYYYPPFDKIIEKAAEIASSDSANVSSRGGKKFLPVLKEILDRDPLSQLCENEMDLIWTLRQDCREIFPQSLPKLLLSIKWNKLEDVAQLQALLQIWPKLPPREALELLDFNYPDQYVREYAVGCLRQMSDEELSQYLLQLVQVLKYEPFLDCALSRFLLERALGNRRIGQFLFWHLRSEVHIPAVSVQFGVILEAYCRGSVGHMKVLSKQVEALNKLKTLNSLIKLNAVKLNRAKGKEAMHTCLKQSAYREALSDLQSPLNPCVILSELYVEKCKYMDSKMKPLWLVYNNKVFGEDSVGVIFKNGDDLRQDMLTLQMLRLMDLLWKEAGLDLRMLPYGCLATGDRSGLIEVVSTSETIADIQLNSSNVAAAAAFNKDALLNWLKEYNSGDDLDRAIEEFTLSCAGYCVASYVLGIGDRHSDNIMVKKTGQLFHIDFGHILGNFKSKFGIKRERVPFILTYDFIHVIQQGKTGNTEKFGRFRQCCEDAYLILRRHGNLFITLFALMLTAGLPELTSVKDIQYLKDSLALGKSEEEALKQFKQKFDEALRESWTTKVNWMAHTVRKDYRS
Sequence of UniProt O75676 (whole entry, looked up): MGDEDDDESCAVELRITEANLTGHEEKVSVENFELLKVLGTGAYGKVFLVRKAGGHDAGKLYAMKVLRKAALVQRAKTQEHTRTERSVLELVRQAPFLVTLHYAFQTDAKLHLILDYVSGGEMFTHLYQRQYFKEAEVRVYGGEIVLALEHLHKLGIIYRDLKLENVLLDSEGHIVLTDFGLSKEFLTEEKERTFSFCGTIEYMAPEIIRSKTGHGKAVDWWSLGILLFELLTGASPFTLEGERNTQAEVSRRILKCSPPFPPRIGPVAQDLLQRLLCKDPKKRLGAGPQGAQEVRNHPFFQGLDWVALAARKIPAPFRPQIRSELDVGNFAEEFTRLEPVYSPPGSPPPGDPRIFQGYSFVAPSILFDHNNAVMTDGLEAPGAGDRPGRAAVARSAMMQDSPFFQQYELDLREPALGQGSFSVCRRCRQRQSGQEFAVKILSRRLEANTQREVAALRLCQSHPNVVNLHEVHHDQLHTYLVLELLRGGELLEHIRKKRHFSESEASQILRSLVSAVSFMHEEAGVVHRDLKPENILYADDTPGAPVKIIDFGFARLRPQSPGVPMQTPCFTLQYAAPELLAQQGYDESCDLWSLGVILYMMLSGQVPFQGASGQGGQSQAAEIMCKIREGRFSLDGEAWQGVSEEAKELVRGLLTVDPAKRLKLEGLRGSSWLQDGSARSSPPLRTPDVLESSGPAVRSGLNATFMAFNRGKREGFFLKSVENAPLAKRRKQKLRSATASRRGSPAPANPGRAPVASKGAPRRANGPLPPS

Set 1 — technique: protein binding microarray; molecule type: double-stranded DNA, one strand shown; matrix: in vitro; tested at: not given; relative to: not given; reading: higher = stronger binding
Target: Histone acetyltransferase KAT6A, both winged helices, GST fusion (KAT6A, Homo sapiens, UniProt Q92794, residues 1-181)
Setting: 8-mer, flanks averaged, mean of 2 arrays, mostly near background
Target sequence (chain): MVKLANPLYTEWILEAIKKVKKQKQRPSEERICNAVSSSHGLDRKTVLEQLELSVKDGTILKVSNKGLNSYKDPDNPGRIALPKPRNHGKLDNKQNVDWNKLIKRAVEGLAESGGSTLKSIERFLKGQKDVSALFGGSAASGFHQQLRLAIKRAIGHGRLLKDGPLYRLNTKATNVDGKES
Strand | E-score
CCAGAGAC | -0.111
AAACTGTT | 0.0098
CGGGAACG | 0.343
CGAACAGA | 0.00592
AGACAAGA | -0.0854
CCCGTAGG | 0.222
ACACTGCT | -0.236
GGTCGAGA | -0.0308

Set 2 — technique: RNA Bind-n-Seq; molecule type: RNA; matrix: in vitro; tested at: 365 nM; relative to: no-protein control; reading: higher = stronger binding
Target: RNA binding protein fox-1 homolog 2, RRM domain, GST-SBP tag (RBFOX2, Homo sapiens, UniProt O43251-10, residues 100-194)
Setting: natural RNA segment, single round, ends assumed
Constant ends, left off below: GGGAGUUCUACAGUCCGACGAUC … UGGAAUUCUCGGGUGCCAA
Construct (chain): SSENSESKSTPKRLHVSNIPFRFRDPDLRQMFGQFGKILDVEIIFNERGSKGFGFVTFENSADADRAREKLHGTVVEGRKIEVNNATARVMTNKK
Strand | RBNS enrichment (R)
AGCCAGUCUGAAGGCCUGAGCCAGGAGCGCUGUGUGGGUUGCCUGUCUCAGGUCGUUGUCAUUUGCCCUCCCUCCAAUUUUGCUUCCCACCCCCACCACUCUACUGAAAG | 0.234
GGGUCUGAGGGUUCCAGCGUAAAUGCCUGCCCUGCAGCGCCUGGCAACUGGCAAGCAUCGGGUCUGAGGGACUACACAGGGCGCAGCACAAGGCGCUCAUGGGUUUCAGG | 0.471
UGGUUCUGCAGUCUGGUGUAGACACUGGAAUAACAGCACAGAAAAAUCUAUGACUCCCAAUAUCUUCUAGAAUAAAGAAUUUUCCCUCUUUAACACAAGGGCCCUCCUUG | 0.353
CUUCCAGUACAAAAAUUAAGUGGACUAGACCUCCAGCUGUUGAGCCCCUCCUAGUUCUUCAUCCCACUCCAACUCUUCCCCCUCUCCCAGUUGUCCCGAUUGUAACUCAA | 1.31
ACUGGGAAGAGCAUUAGCCAAGAACUUGUCUCUUUGAUCUGUUUCGUUAAGCUGAACCAGUGUCUUUACAUUUCAUUUGUACUUCAAAAAAUAUGCUAUUGUUUAGACUU | 0.288
AAAAUGCCUCCAAACAUUUUUCUGUACUCAUACUUAGAUUCACAAUGGUUGUGUAUCUCUAUAAUGUGAAAUAUUUUUUUGUGGUGAUAAAAAGAGGGCCAAGGAGGUAU | 0.599
UACCACAUUUGUGCCCCACUGACCUGAAGGUUCCAUGUAACUGUAUACACAUGAAUACUUAAAUGCCAACAUUUAAAAUAAUUUGAUAAAGUCUUUGUAGCCACUCAGCC | 0.364
UCUACCUGUUCCUAAUUUGGUGUGGGGUGCGGGGUCCCUGGCCCCUUUUCCACACUCCUCCUCCGACAGCAGCUCCCUGGGCAGUGGCCUGGUCUCACCGUGUGCAGCCU | 0.316

Set 3 — Compound: c1ccc(N2CCN(Cc3nc4ccccc4[nH]3)CC2)nc1; technique: competition with immobilised ligand; tested at: 1 µM
target | effect on | remaining binding [%]
DCLK3 (Homo sapiens, UniProt Q9C098) | binding | 93
CDKL3 (Homo sapiens, UniProt Q8IVW4) | binding | 100
FES (Homo sapiens, UniProt P07332) | cell-free assay | 100
PIK3CB (Homo sapiens, UniProt P42338) | cell-free assay | 100
PIK3CA (Homo sapiens, UniProt P42336, H1047L) | cell-free assay | 100
Tyrosine-protein kinase ABL1, phosphorylated (ABL1, Homo sapiens, UniProt P00519, Y253F) | binding | 100

Set 4 — effect on: enzyme activity; action: inhibitor; tested at: 0.5 µM; relative to: control
SMILES: Cc1ccc(NC(=O)c2ccc(CN3CCN(C)CC3)cc2)cc1Nc1nccc(-c2cccnc2)n1
target | remaining activity [%]
DDR2 (Homo sapiens, UniProt Q16832) | 27.1
CDC42BPB (Homo sapiens, UniProt Q9Y5S2) | 97.1
NEK3 (Homo sapiens, UniProt P51956) | 97
Cyclin-dependent kinase 1, with cyclin A (CDK1, Homo sapiens, UniProt P06493) | 101
RPS6KA4 (Homo sapiens, UniProt O75676) | 103
DCLK2 (Homo sapiens, UniProt Q8N568) | 102
MARK2 (Homo sapiens, UniProt Q7KZI7) | 94.7
TLK2 (Homo sapiens, UniProt Q86UE8) | 78.4
PRKG2 (Homo sapiens, UniProt Q13237) | 95.7
TXK (Homo sapiens, UniProt P42681) | 108
CAMK4 (Homo sapiens, UniProt Q16566) | 102
PLK3 (Homo sapiens, UniProt Q9H4B4) | 100
PAK3 (Homo sapiens, UniProt O75914) | 106

Repeated from above (set 4):
target | remaining activity [%]
NEK3 (Homo sapiens, UniProt P51956) | 97
Cyclin-dependent kinase 1, with cyclin A (CDK1, Homo sapiens, UniProt P06493) | 101
RPS6KA4 (Homo sapiens, UniProt O75676) | 103
DCLK2 (Homo sapiens, UniProt Q8N568) | 102
MARK2 (Homo sapiens, UniProt Q7KZI7) | 94.7
